{"data": "Published values pooled from the literature", "note": "Every numbered part comes from another study and shows a few of its results, in no order. Changes are numbered by the printed parent chain."}
{"data": "Block 1", "target": "CCNB1, cyclin fold, Cln2 fusion (human)", "method": "yeast growth competition, sequencing", "matrix": "yeast", "notes": "weak parent motif", "relative to": "not given", "direction": "higher = stronger binding", "starting sequence": "PLK5 docking peptide (human); IFRKVGQRLLTQC"}
{"Change": "Q12A", "normalised enrichment score": 0.743}
{"Change": "I1A", "normalised enrichment score": 0.0808}
{"Change": "F2A", "normalised enrichment score": 0.423}
{"Change": "V5A", "normalised enrichment score": -0.0359}
{"Change": "L10A", "normalised enrichment score": 0.215}
{"Change": "G6A", "normalised enrichment score": 0.0371}
{"Change": "T11A", "normalised enrichment score": 0.837}
{"data": "Block 2", "target": "UBE2O UBC core domain (UniProt Q9C0C9)", "method": "yeast two-hybrid", "matrix": "yeast", "notes": "mostly zero background", "relative to": "not given", "direction": "higher = stronger interaction", "B1": "TRIM28 RING domain (UniProt Q13263); chain GAEALELLEHCGVCRERLRPEREPRLLPCLHSACSACLGPAAPAAANSSGDGGAAGDGTVVDCPVCKQQCFSKDIVE", "B2": "SHPRH RING domain (UniProt Q149N8); chain KTSGGVNPEPCPICARQLGKQWAVLTCGHCFCNECISIIIEQYSVGSHRSSIKCAICRQTTSHKEISY", "B3": "UBE4B RING domain (UniProt O95155); chain KNARAEIDYSDAPDEFRDPLMDTLMTDPVRLPSGTIMDRSIILRHLLNSPTDPFNRQTLTESMLEPVPELKEQIQAWMREKQNSDH", "B4": "TRIM32 RING domain (UniProt Q13049); chain NLDALREVLECPICMESFTEEQLRPKLLHCGHTICRQCLEKLLASSINGVRCPFCSKITRITSLTQ", "B5": "TRIM47 RING domain (UniProt Q96LD4); chain MDGSGPFSCPICLEPLREPVTLPCGHNFCLACLGALWPHRGASGAGGPGGAARCPLCQEPFPDGLQLR", "B6": "PJA2 RING domain (UniProt O43164); chain DHTAIGQEQCCPICCSEYIKDDIATELPCHHFFHKPCVSIWLQKSGTCPVCRRHFPPAVIEA", "B7": "RNF115 RING domain (UniProt Q9Y4L5); chain TQEQVDMGLECPVCKEDYTVEEEVRQLPCNHFFHSSCIVPWLELHDTCPVCRKSLNGEDSTR", "B8": "TRIM2 RING domain (UniProt Q9C040); chain VRQIDKQFLICSICLERYKNPKVLPCLHTFCERCLQNYIPAHSLTLSCPVCRQTSILPEKGV", "sequence of UniProt Q9C0C9 (whole entry, looked up)": "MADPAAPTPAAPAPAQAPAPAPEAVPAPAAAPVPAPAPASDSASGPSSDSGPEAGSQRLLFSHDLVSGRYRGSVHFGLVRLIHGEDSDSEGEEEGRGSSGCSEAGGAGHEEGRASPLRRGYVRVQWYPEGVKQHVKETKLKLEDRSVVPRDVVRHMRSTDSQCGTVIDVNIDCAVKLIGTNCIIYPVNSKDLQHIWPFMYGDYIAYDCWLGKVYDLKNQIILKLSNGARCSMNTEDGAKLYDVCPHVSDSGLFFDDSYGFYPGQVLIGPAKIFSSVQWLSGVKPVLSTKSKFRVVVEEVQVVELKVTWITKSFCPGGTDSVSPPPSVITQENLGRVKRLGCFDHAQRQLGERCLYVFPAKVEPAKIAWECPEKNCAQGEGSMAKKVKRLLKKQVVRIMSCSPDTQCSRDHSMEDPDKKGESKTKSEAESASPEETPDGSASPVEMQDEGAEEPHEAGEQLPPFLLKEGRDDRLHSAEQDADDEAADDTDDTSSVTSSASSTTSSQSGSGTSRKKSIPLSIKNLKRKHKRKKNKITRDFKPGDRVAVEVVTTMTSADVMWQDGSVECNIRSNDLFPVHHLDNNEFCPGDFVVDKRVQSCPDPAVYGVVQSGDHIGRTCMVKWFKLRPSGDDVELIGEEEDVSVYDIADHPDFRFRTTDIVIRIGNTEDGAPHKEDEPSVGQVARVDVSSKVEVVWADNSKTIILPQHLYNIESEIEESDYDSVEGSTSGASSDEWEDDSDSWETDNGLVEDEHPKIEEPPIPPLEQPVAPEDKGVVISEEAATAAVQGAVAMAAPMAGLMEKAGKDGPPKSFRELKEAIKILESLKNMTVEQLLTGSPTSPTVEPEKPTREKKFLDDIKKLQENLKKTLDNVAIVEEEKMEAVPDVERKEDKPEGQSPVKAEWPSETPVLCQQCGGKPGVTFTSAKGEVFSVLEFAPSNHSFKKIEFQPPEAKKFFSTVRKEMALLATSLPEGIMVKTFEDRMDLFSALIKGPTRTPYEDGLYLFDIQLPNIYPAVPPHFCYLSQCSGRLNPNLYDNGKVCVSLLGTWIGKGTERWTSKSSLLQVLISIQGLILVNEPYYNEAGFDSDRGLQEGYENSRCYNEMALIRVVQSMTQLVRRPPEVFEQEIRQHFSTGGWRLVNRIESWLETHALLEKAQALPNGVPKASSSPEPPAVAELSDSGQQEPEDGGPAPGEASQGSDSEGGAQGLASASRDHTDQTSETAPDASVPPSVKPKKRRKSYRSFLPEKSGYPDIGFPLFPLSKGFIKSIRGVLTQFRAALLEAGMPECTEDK"}
{"Molecule": "B1 (TRIM28 RING domain)", "lacZ reporter activity": 0}
{"Molecule": "KITELNPHLMCALCGGYFIDATTIVECLHSFCKTCIVRYLETNKYCPMCDVQVHKTRPLL (PCGF2 RING domain (UniProt P35227))", "lacZ reporter activity": 0}
{"Molecule": "PLRRLQEEKLCKICMDRHIAVVFIPCGHLVTCKQCAEAVDRCPMCSAVIDFKQRVF (BIRC8 RING domain (UniProt Q96P09))", "lacZ reporter activity": 0}
{"Molecule": "GSEEEEIPFRCFICRQAFQNPVVTKCRHYFCESCALEHFRATPRCYICDQPTGGIFNPA (RNF113B RING domain (UniProt Q8IZP6))", "lacZ reporter activity": 0}
{"Molecule": "B2 (SHPRH RING domain)", "lacZ reporter activity": 0}
{"Molecule": "EIKDYKARLTCPCCNMRKKDAVLTKCFHVFCFECVKTRYDTRQRKCPKCNAAFGANDFHR (RNF20 RING domain (UniProt Q5VTR2))", "lacZ reporter activity": 0}
{"Molecule": "B3 (UBE4B RING domain)", "lacZ reporter activity": 0}
{"Molecule": "B4 (TRIM32 RING domain)", "lacZ reporter activity": 0}
{"Molecule": "B5 (TRIM47 RING domain)", "lacZ reporter activity": 0}
{"Molecule": "B6 (PJA2 RING domain)", "lacZ reporter activity": 0}
{"Molecule": "B7 (RNF115 RING domain)", "lacZ reporter activity": 0}
{"Molecule": "B8 (TRIM2 RING domain)", "lacZ reporter activity": 0}
{"Molecule": "EDVLSKDAGECAICLEELQQGDTIARLPCLCIYHKGCIDEWFEVNRSCPEHPSD (ZNRF2 RING domain (UniProt Q8NHG8))", "lacZ reporter activity": 0}
{"data": "Block 3", "target": "Ras GTPase-activating protein-binding protein 1, RRM domain (G3BP1, Homo sapiens, UniProt Q13283)", "method": "RNA Bind-n-Seq", "form": "RNA", "matrix": "in vitro", "tested at": "1 µM", "notes": "whole 134-nt RNA, ends assumed", "together with": "150 mM KCl", "relative to": "input library", "direction": "higher = stronger binding", "constant ends, left off below": "GGGAGUUCUACAGUCCGACGAUC … UGGAAUUCUCGGGUGUCAAGG", "sequence of UniProt Q13283 (whole entry, looked up)": "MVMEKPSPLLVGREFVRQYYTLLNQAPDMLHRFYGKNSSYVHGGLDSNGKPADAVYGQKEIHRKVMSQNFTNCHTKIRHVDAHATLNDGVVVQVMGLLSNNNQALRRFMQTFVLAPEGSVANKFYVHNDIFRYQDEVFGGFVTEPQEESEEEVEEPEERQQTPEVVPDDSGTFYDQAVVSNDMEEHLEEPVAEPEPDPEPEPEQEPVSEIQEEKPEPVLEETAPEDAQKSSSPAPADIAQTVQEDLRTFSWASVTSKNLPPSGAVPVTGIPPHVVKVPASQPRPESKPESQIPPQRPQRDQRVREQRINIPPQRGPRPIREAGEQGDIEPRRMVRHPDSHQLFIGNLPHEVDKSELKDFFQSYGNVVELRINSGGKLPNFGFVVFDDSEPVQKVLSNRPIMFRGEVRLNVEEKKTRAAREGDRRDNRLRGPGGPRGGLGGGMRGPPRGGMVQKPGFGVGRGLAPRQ"}
{"Oligonucleotide": "UCCUGUGCUACACAUCGUAUGUACCGAAUCGGGGAAAAAGGGGAAAAAAAGGGGUGGGGAAAGUAUUAUGUUACGCCGUUCGGAUCUGCA", "log2 enrichment": 0.688}
{"Oligonucleotide": "UAACUUUAGAGGAGGAUCUGAUGGAUAUGGCUGUGGACGUGGAUUUGGGGAUGGCUAUAAUGGGUAUGGAGGAGGACCUGGAGGUGGCAA", "log2 enrichment": -0.745}
{"Oligonucleotide": "AGUCCUGUGCUACACAUCGUAUGUACCGAAUCGGGGUUUUGGGGUUUUGGGUUUUGGGAAAGUAUUAUGUUACGCCGUUCGGAUCUGCAC", "log2 enrichment": 0.102}
{"Oligonucleotide": "UAACUUUAGAGGAGGAUCUGAUGGAUAUGGCAGUGGACGUGGAUUUGAGGAUGGCUAUAAUGGGUAUGGAGGAGGACCUGGAGGUGGCAA", "log2 enrichment": -0.497}
{"Oligonucleotide": "UGGCCCUGGUGGCAUGCGGGGAGGAAUAGGUGGCCUCAUGGAUCGUGGUGGUCCCGGUGGAAUGUUCAGAGGUGGCCGUGGUGGAGACAG", "log2 enrichment": 0.734}
{"Oligonucleotide": "CUGUGCUACACAUCGUAUGUACCGAAUCGGGAAAAAAAGGGGAAAAAAAGGAAAAAAAGGGGAAAGUAUUAUGUUACGCCGUUCGGAUCU", "log2 enrichment": 0.184}
{"Oligonucleotide": "CUGUGCUACACAUCGUAUGUACCGAAUCGGGCCCCCCCGGCCCCCCCGGGCCCCCCCGGGGAAAGUAUUAUGUUACGCCGUUCGGAUCUG", "log2 enrichment": -0.755}
{"Oligonucleotide": "CACAGACAACACGCACCCACACAGACACAGAGGGAAGGGGUUGGGAUGGGGACAGGGUGCACAGCAGGGCGGGGUAGGACCCCAGUCCCU", "log2 enrichment": -0.378}
{"Oligonucleotide": "CCUCAAGUCCUGUGCUACACAUCGUAUGUACCGAAUCGGCCGGCCGGCCGGGGAAAGUAUUAUGUUACGCCGUUCGGAUCUGCACUUCCA", "log2 enrichment": -0.282}
{"Oligonucleotide": "CACAGACAACACGCACCCACACAGACACAGAGGGAAGGGGUUGGGAUGGGGACAGGAUGCACAGCAGGGCGGGGUAGGACCCCAGCCCCU", "log2 enrichment": 0.0194}
{"Oligonucleotide": "UCCUCAAGUCCUGUGCUACACAUCGUAUGUACCGAAUCGGGGCGGCGGCGGGAAAGUAUUAUGUUACGCCGUUCGGAUCUGCACUUCCAG", "log2 enrichment": -0.197}
{"Oligonucleotide": "ACCAUGCAGGUGGGCAUCUUUGGGAAGUGGGGCAAGGGGGGGAUAGGGAGGGGGGUAACACUUUGGGAACAGGUGGUCCCAGGUCGCUUC", "log2 enrichment": 0.355}
{"Oligonucleotide": "CAAGUCCUGUGCUACACAUCGUAUGUACCGAAUCGGUGGUUUUUUUGGAAAAAGGAAAGUAUUAUGUUACGCCGUUCGGAUCUGCACUUC", "log2 enrichment": -0.197}
{"Oligonucleotide": "UGGCCCUGGUGGCAUGCGGGGAGGAAGAGGUGGCCUCAUGGAUCGUGGUGGUGCCGGUGGAAUGUUCAGAGGUGGCCGUGGUGGAGACAG", "log2 enrichment": 1.07}
{"data": "Block 4", "target": "RNA binding protein fox-1 homolog 2, RRM domain, GST-SBP tag (RBFOX2, Homo sapiens, UniProt O43251-10, residues 100-194)", "method": "RNA Bind-n-Seq", "form": "RNA", "matrix": "in vitro", "tested at": "365 nM", "notes": "natural RNA segment, single round, ends assumed", "relative to": "no-protein control", "direction": "higher = stronger binding", "constant ends, left off below": "GGGAGUUCUACAGUCCGACGAUC … UGGAAUUCUCGGGUGCCAA", "Residues (chain)": "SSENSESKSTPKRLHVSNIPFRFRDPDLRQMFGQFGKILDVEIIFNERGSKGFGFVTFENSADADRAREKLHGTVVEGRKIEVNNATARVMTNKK"}
{"Oligonucleotide": "GGUAUACUCAGUAUGUCCUAGUAAGGAAGGCUUUCCACUCUACUGGCUCCUUAAGAAGCAAAAGUAGGUUAAAUUUUAUACUUCACUGACUAGGGUCUUCUCUCUCCCCU", "RBNS enrichment (R)": 0.194}
{"Oligonucleotide": "ACACACACAGACCACACGUGCACACAGCACUCCAUAUGCAACUCUGUAUUCUUGCCAAAGAUUUCCUUUAAACAAGAGCACUUUUACCCAAUGGCUCUUUUGUGAAUGAU", "RBNS enrichment (R)": 1.13}
{"Oligonucleotide": "CCUGGGGACUGCUGCUGUCCUGCCCUUGUAAGCCAUGGCUGAUCACUUUUGGUCAAUAUGUCAAAAUUCGGGGUCCACGCCAGGCUUGGGGGGCUUGGGAGUGUUUGUCA", "RBNS enrichment (R)": 0.443}
{"Oligonucleotide": "UUGCUUCCAGAGAAUUGGAACGUGUGUGGCCUGGAGCGCAGUAGAAACCAGCCGUUCCCAACCUAUUCCCAUUGACAGUGAUCUUGCAUCCGCCAGCCAUUGCUCUUGGC", "RBNS enrichment (R)": 2.23}
{"Oligonucleotide": "AAAUGCCAAAGGAAGGAAGCCUCAGGGACAGGCUGCAACUUGGAGCCCAGCGCAUCACUCUCGGCUUGCUGGUGCAGUUCACCAUCUCACUGGCCCUACAACUGCCUUAG", "RBNS enrichment (R)": 0.469}
{"Oligonucleotide": "GUCCAUCGGGCUGGCCCCAGCCCAUCUGCUGGCAUCAGUACCUGGUGUUGGGACAGCAGGAUAGGGUUCUAAAGGUGGUUUUCUAUCCAAACGACCAAAAAACCAACAGU", "RBNS enrichment (R)": 0.283}
{"Oligonucleotide": "UCCACCCCUGUUGAUGAUCAUUCCUGGGAAGGGGUUUCUCGUUCUAUGCAAUCCUAAAGGACGAAACUCACCCAUGGGAGGCCGAAUUCUCCUUGGGAUGAAGAAAUUUC", "RBNS enrichment (R)": 0.35}
{"Oligonucleotide": "GACUCUCUGCCUCACCCGCUUCAGCCCAGGGCCCCUGGAGACUGAUCCCCUCUGAGUCCUCUGCCCCUUCCAAGGACACUAAUGAGCCUGGGAGGGUGGCAGGGAGGAGG", "RBNS enrichment (R)": 0.463}
{"Oligonucleotide": "CUCCUUAGGCAGCCAGGAAUUGGAACCCCCAUGCCCGCAGCACGUUUUUCUUAUGAUCAGGGAGUGUGCCUAAGGUGCCCCCUAGUUUGGGCAAGGCCUGGUUCCCUCAC", "RBNS enrichment (R)": 5.34}
{"Oligonucleotide": "UCACAAGCUGCCUCUAUUUCAGUUCGCUCACCUCUUUGCCCUGUCCCCAGUAUUGAUCCCCCACCCUUUUUUGAGACAGGGCAUCCCAGCUGGCGACAACCCUCCUUUCU", "RBNS enrichment (R)": 0.645}
{"Oligonucleotide": "GAAGAUGCAAGGACCUCUCCUCAAGAGACUGUUGCCUGCCUGAAGCUUCUGUUCAGGCUCAUGCCAAGCUUGACCGGAUUGGGAGAACUGGACUCAGUUUAACCUGUAUC", "RBNS enrichment (R)": 0.369}
{"Oligonucleotide": "UCAGUAUAGAUUGCCAGUAUUGUUAAGAGUAUCCAAAGGCCUUUCUAGAUGGAGACAGAAUAACUGACUUGAACAUACAGUGUGCCUGUAAGUGUCCAGGCUCAGAGCUG", "RBNS enrichment (R)": 0.289}
{"note": "For quick reference, copied from above (block 1):"}
{"Change": "Q12A", "normalised enrichment score": 0.743}
{"Change": "I1A", "normalised enrichment score": 0.0808}
{"Change": "F2A", "normalised enrichment score": 0.423}
{"Change": "V5A", "normalised enrichment score": -0.0359}
{"Change": "L10A", "normalised enrichment score": 0.215}
{"Change": "G6A", "normalised enrichment score": 0.0371}
{"Change": "T11A", "normalised enrichment score": 0.837}
